# Assay results of several laboratories.
# Every numbered part comes from another study and shows a few of its results, in no order. Positions count from the first letter of the parent shown.
# Sequence of UniProt Q9C0B0 (30-357, looked up): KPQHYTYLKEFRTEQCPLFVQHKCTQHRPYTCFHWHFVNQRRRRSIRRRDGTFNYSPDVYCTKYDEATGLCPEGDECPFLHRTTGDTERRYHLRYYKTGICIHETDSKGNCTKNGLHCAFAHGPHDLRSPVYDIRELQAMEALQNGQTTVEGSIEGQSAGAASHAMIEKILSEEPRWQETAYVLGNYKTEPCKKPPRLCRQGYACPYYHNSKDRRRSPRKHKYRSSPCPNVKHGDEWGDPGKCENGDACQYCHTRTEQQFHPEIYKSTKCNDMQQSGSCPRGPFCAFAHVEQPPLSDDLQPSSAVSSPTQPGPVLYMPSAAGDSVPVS

# Sample 1 — technique: RNA Bind-n-Seq; form: RNA; medium: in vitro; tested at: 200 nM; setting: whole 134-nt RNA, ends assumed; with: 150 mM LiCl; reference: input library; direction: higher = stronger binding; library: 7-deaza-guanosine replaces G
# Target: Ras GTPase-activating protein-binding protein 1, full length (G3BP1, Homo sapiens, UniProt Q13283)
# Sequence of UniProt Q13283 (whole entry, looked up): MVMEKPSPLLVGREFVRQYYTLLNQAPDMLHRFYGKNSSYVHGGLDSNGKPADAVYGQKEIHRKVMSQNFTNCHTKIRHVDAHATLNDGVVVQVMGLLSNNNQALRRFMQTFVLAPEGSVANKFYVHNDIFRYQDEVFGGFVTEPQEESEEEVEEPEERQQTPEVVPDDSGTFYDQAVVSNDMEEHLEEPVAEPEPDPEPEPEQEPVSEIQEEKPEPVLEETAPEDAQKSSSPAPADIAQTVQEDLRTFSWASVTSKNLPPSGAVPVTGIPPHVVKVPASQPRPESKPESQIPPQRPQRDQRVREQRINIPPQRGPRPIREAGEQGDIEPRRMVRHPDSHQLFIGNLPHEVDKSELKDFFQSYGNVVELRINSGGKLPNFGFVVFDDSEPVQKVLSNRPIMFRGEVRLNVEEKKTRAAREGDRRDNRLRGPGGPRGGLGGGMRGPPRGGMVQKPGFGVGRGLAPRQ
Strand,log2 enrichment
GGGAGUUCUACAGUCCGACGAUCUCCUGUGCUACACAUCGUAUGUACCGAAUCGGGUUUUUUUGGGAAAAAGGGUUUUUGGGAAAGUAUUAUGUUACGCCGUUCGGAUCUGCAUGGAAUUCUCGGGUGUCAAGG,-2.14
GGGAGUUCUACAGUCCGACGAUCAAGUCCUGUGCUACACAUCGUAUGUACCGAAUCGGGUUUUUGGGUUUGGGUUUGGGAAAGUAUUAUGUUACGCCGUUCGGAUCUGCACUUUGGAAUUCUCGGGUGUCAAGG,-0.773
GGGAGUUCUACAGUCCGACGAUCCCUCAAGUCCUGUGCUACACAUCGUAUGUACCGAAUCGGGGCGGGCGGGCGGGAAAGUAUUAUGUUACGCCGUUCGGAUCUGCACUUCCAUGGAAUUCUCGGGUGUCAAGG,-0.528
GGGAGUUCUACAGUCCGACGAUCGUCCUGUGCUACACAUCGUAUGUACCGAAUCGGUUUUUGGGUUUUUGGGGUUUUUGGGAAAGUAUUAUGUUACGCCGUUCGGAUCUGCACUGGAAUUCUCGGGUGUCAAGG,-0.0416
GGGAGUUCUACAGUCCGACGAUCCUGUGCUACACAUCGUAUGUACCGAAUCGGGGAAAAAAAGGGAAAAAAAGGGAAAAAAAGGAAAGUAUUAUGUUACGCCGUUCGGAUCUGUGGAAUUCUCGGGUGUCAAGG,-0.13
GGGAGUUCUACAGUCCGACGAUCCACAGACAACACGCACCCACACAGACACAGAGGGAAGGGGUUGGGAUGGGGACAGGGUGCACAGCAGGGCGGGGUAGAAACCCAGCCCCUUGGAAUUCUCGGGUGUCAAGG,0.584
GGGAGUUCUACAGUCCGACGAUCGCAGGAAGUAAAAACAAAUGGAAAUGCUUCGGAUAGUGGCAGGGGUGGGGGUUGCUAAGGAAAGGGUGGGAUGGGAGUGGGUAAAGAAAUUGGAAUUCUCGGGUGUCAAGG,0.0523
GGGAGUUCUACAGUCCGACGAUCGUCCUGUGCUACACAUCGUAUGUACCGAAUCGGAAAAAGGGGAAAAAGGGAAAAAGGGAAAGUAUUAUGUUACGCCGUUCGGAUCUGCACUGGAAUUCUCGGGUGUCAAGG,0.0307
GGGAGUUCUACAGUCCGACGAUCUGGGAGGUGGAUUUUGUUUAUUUUUUUAGCUCAUUUCCAGGGGUGGGAAUUUUUUUGUAAUAUGUGUCAUGAAUAAAGUUGUUUUUGAAAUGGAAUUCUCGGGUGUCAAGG,-0.276
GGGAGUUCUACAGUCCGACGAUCUUUGCUUGCAGUAUCUGUUUCUCUUCCUAGGCUCAAGUUGGUGACCCAAGCCUAUUGUAAACAAGUGAUUAUCUCAAAGGGAGAUGCCAAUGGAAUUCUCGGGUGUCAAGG,-0.94
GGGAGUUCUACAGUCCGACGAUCCCUGUGCUACACAUCGUAUGUACCGAAUCGGGGAGGGGAAAAAAAGGGGAAAAAAAGGGGAAAGUAUUAUGUUACGCCGUUCGGAUCUGCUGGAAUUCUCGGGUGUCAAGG,0.883

# Sample 2 — technique: RNA Bind-n-Seq; form: RNA; medium: in vitro; tested at: 365 nM; reference: no-protein control; direction: higher = stronger binding
# Target: RNA binding protein fox-1 homolog 2, RRM domain, GST-SBP tag (RBFOX2, Homo sapiens, UniProt O43251-10, residues 100-194)
# Setting: natural RNA segment, single round, ends assumed
# Construct (chain): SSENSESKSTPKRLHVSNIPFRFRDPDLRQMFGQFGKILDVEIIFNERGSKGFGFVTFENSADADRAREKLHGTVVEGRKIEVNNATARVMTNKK
Strand,RBNS enrichment (R)
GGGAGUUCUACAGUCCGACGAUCUGGAAUGCAGCAUUACCUGCUGGACAGAGCAGGGCAGGCAGUUCUAUGCCUUGGAGCUCCUGACUGCAGGGACUCUGUCCCCACACUCAAAAAGACUCAGCUCACUCAAUUGGAAUUCUCGGGUGCCAA,0.36
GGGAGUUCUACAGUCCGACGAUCACACUUUGAGAUACUUAAAGAAAUUCAGAGCAUAUCGAAUGUUAUGAAUGAAGAGUAAAAUAAUUACAGGAAAAGAAUGCAUGAUUUUUCAUUGUCACACCAAAUAACCAUGGAAUUCUCGGGUGCCAA,40.9
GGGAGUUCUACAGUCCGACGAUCCAUGCUGUGCUCUUGGAGCUUGUCCUGUCUUCUGGAAGCCCUGGACAAGGCGUGUGAAGGCUUCCCAGAAGUUCCUGUCCACAUUGCCUCCGCCCACCGACGCCAUGGGCUGGAAUUCUCGGGUGCCAA,0.65
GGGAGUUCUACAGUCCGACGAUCUCCCUUUUUUCUUUGGAACUUGGCCACAGUUUCUCUGGGCUGUGCCUGCAUGACCAGCUGGCUUCAGUGAUUUCUCCGUUUCCCUCUUUAGUUUCUAGGAAGCCACUGUGUGGAAUUCUCGGGUGCCAA,31.6
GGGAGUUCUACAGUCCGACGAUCAGGUGGGGAACAAUCCUUGCCAGAGUGGGCUGGGACCAGACUUUGUUCUCUUCCUCACCUGAAAUUAUGCUUCCUAAAAUCUCAAGCCAAACUCAAAGAAUGGGGUGGUGUGGAAUUCUCGGGUGCCAA,0.218
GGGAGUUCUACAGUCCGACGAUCUCCUUAAUCCAACUUAUACCGGGUUGGAGGCACUUGUACUAUUUAUUUCCUGGGAAAUUUUGGUCAAAAGCCAGCUUCUUUUGCUGUCUUUAAUAAGAAAAACUUGAAGUUGGAAUUCUCGGGUGCCAA,0.3
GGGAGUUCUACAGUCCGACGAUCCCAUGUAUUCUAGGCCAGGUAGGCAACACAGAGCCAAGGCGGGUGCUGGAAGCCAGACGGAACAGUGUUGGGGCAGGAAGGUGGAUGCUGUUGUCAUGGAGCUGUGGGAGUGGAAUUCUCGGGUGCCAA,0.902
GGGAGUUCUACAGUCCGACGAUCGUGUCUACAGGCCAUCACGUGGGGAGGCGCACCAGGCGACAGAGGAUGUGGUGGCCUUCCUCCUAGGACUGAUUGGCGUCGCCGUCCUAACCCAGCUGUGGAGUUUUUGUUGGAAUUCUCGGGUGCCAA,0.666
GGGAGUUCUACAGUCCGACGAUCUGCCUCGUCCCACUAUGCACAGAUUGAAACUUCACCUACAAACCUGUUAGUGUGAUCUGUGGAGAAUGUACAGAACUUAACUACAUCAAUAAACACUUUAACGUCCCCUGUGGAAUUCUCGGGUGCCAA,0.886
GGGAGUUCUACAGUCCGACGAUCAGAAAUUUCUAGACACAACAGCUUAAAAUCACCCAAAUUUCAGUUCUUUACCUACUGCACUAACAAUGGCAAGGGGGGUAUUCUUUAUAUGUUGCCUUGUUUAACUACAGUGGAAUUCUCGGGUGCCAA,0.625
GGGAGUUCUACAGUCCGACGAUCAAGCCACUGUUCCCUCUGGUGGCUUUUACAUGUCGGUGGCUGGCAUACCAUAUAGUAACAGCAGUAAUUCUGUCUCAGUGUGCUUGCAAGGAAACUUUUCUUAUAAAGAGUGGAAUUCUCGGGUGCCAA,0.263
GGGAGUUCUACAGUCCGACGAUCAAGAUUUAGCUCACCCUUGAACUGUCCAAGUGCCCGCAGUCCCUAGACUCAUCCCCGUGGGCUAGGACAGGAGGCCACUAGUACUGAUGCCAAACCAGGCCUCCACCGACUGGAAUUCUCGGGUGCCAA,0.637

# Sample 3 — technique: protein binding microarray; form: double-stranded DNA, one strand shown; medium: in vitro; tested at: not given; reference: not given; direction: higher = stronger binding
# Target: Histone acetyltransferase KAT6A, winged helix 1, GST fusion (KAT6A, Homo sapiens, UniProt Q92794, residues 1-85)
# Setting: 8-mer, flanks averaged, mean of 2 arrays, mostly near background
# Residues (chain): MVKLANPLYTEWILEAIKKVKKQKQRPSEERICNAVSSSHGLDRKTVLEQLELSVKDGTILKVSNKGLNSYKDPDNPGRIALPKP
Strand,E-score
CAGAGTAA,-0.0891
GAGAAATC,-0.0142
ATCTGCAA,-0.295
ATGAGGGG,-0.205
GGGTAAAA,-0.0721
CACCGGTA,0.195
CAGAAATA,-0.152
ACAAAGGC,-0.0488
CGGCTCGC,0.286
CACAGGGG,-0.155
ACTTTAAC,-0.202
CAGTTAGA,-0.0674
AACATGAT,-0.0357
CCGCACGA,0.187
GCGTTGCA,0.102
GAATCTTA,-0.121
GATCCTGC,-0.0874
GCGTCGGA,0.402
GACTTCCC,-0.0659
AAGACTAC,-0.0684
TTTATAAA,0.143
CGTCGATA,0.227
AGCTGACG,0.037
GAAATCTA,-0.125
GATCGATA,-0.0301

# Sample 4 — target: CCNF, cyclin fold, Cln2 fusion (human); technique: yeast growth competition, sequencing; medium: yeast; setting: strong parent motif; reference: not given; direction: higher = stronger binding
# Parent: RBL1 docking peptide (human); GSAKRRLFGEDPP; partner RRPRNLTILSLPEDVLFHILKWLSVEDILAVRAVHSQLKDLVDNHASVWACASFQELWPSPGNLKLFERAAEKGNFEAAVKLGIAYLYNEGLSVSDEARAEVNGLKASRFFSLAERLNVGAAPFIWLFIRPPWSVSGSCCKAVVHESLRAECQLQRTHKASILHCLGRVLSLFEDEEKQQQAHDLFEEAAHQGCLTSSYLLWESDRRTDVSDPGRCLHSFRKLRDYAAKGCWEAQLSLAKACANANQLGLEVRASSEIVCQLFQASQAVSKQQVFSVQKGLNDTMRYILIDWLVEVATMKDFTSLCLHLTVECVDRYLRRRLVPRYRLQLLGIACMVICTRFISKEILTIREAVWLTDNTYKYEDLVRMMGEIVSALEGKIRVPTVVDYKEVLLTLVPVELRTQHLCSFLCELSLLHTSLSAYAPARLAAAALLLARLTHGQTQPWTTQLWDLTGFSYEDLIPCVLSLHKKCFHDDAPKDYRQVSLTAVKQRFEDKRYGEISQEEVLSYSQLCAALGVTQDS
Substitution,normalised enrichment score
R6G,0.407
R5K,3.64
G9W,7.99
L7D,-0.268
R6A,4.91
E10C,6.29
A3F,5.62
R6I,3.82
P13Y,6.61
L7W,1.86
D11C,7.69
F8T,0.6
P12N,7.43
R6C,5.57
L7H,-0.161
G9K,6.69
L7F,0.744
S2E,5.5
P13C,6.15
R5G,0.599
K4C,6.79
P12Q,7.01
G1M,7.31
F8D,1.11
K4D,0.162

# Other studies, line by line
Strand,target,assay,test system,conditions,how to read,measurement,result
GGGAGUUCUACAGUCCGACGAUCCUCUAUGGGCCUCGCAGAGUUGAAAUAAUGGAAGAGGAAAGUGAACAGUAAUCUUCAUUUCCGUAUUUAUGCUCCGAUGUGAAAAUAAAUGUUAUUUGUUGAUCAUUUCUAUAAUCCAGACAACAGAGGAUUGAGCAUCA,"RING finger protein unkempt homolog, zinc fingers 1-6, SBP tag (UNK, Homo sapiens, UniProt Q9C0B0, residues 30-357)",RNA Bind-n-Seq,"RNA, in vitro","100 nM, RNA with constant flanks, ends assumed","reference: input RNA pool, higher = stronger binding",bound/input enrichment,0.3 ratio
